Assay results pooled from the literature.
Protocols differ between the studies behind these lines. “And” joins repeats or separate records; there may be more than shown. ± marks the error that the study gave.
PPO3: PPO3 (Agaricus bisporus, UniProt C7FF04)
SLC6A9: Sodium- and chloride-dependent glycine transporter 1 (SLC6A9, Homo sapiens, UniProt P48067)
USP14: Ubiquitin carboxyl-terminal hydrolase 14 (USP14, Homo sapiens, UniProt P54578)
Gria2/Glutamate receptor 3: Gria2/Glutamate receptor 3 (Rattus norvegicus, UniProt P19491+P19492)
T1: DNA hairpin, hairpin; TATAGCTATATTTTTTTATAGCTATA

CC[C@H](C)[C@H](NC(=O)[C@@H](NC(=O)[C@@H](NC(=O)[C@@H](NC(=O)[C@H](CCCNC(=N)N)NC(=O)[C@H](CCC(=O)O)NC(=O)[C@H](CCC(=O)O)NC(=O)[C@H](C)NC(=O)[C@H](CCC(=O)O)NC(=O)CNC(=O)[C@H](C)NC(=O)CN)C(C)C)C(C)C)C(C)C)C(=O)N[C@@H](CC(=O)O)C(=O)N[C@@H](CC(=O)O)C(=O)N[C@@H](CC(=O)O)C(=O)N[C@@H](CCC(=O)O)C(=O)N[C@@H](CC(=O)O)C(=O)N[C@@H](CC(=O)O)C(=O)N[C@@H](CC(=O)O)C(=O)N[C@@H](C)C(=O)N[C@@H](CCC(=O)O)C(=O)N[C@@H](CC(N)=O)C(=O)N[C@@H](CO)C(=O)N[C@@H](CO)C(=O)N[C@@H](CO)C(=O)N[C@@H](CCCNC(=N)N)C(=O)N[C@@H](Cc1ccc(O)cc1)C(=O)O  enthalpy change (ΔH) (Small ubiquitin-related modifier 1, residues 17-97 (Homo sapiens, UniProt P63165, C52A); isothermal titration calorimetry; concentration not given, pH 7.4, N-terminally truncated SUMO1): 6.51 ± 0.05 kcal/mol
C#CCCCC(=O)NCC1CN(CCCCCNC(=O)CN(CCN)C(=O)Cn2cnc3c(=O)[nH]c(N)nc32)CCN(CCCCCNC(=O)CN(CCN)C(=O)Cn2cnc3c(=O)[nH]c(N)nc32)CCN(CCCCCNC(=O)CN(CCN)C(=O)Cn2cnc3c(=O)[nH]c(N)nc32)CCN1CCCCCNC(=O)CN(CCN)C(=O)Cn1cnc2c(=O)[nH]c(N)nc21 (stereo not shown)  change in melting temperature (T1, DNA hairpin, hairpin; FRET melting): 0 °C
OC[C@H]1O[C@@H](Oc2cc3c(O)cc(O)cc3[o+]c2-c2cc(O)c(O)c(O)c2)[C@H](O)[C@@H](O)[C@H]1O  number of binding sites (PPO3; fluorescence quenching; concentration not given, 338 K): 1.35
Cc1cc(C)cc(COc2cc3c(cc2OCc2cc(C)cc(C)c2)C2CC(O)(Cc4cn(CCOCCOCCNC(=O)CCCCC5SCC6NC(=O)NC65)nn4)CC(C)N2CC3)c1 (stereo not shown)  SILAC ratio (ATP-dependent RNA helicase DDX39A (Homo sapiens, UniProt O00148); biotinylated probe pull-down, item: DDX39A; 10 µM probe; baseline: heavy over light): 3.68
N[C@H]1CC[C@H](Nc2nccc(-c3cccnc3Oc3ccc(NC(=O)NC4CC4)c4ccccc34)n2)CC1  log2 LFQ intensity (CAD (Homo sapiens, UniProt P27708); kinobead competition pulldown; HEK293/HCT116 lysate mixture; 10 µM, 1 h, 4 °C; lower = stronger competition): 21.6 and 21.4 and 22 and 19.3
COc1ccc(C(OCCN2CCCC(C(=O)O)C2)(c2ccc(C=O)cc2)c2ccc(OC)cc2)cc1 (stereo not shown)  remaining signal (SLC6A9; cell-free assay; 1 µM): 73.5%
CN1C(=O)Cc2ccccc2C1=O  inhibition (USP14; enzyme activity, inhibitor; 17 µM): 23%
CCCCCCCCCCCCC/C=C/C=O  isoTOP-ABPP competition ratio (Histone acetyltransferase type B catalytic subunit (Homo sapiens, UniProt O14929); competitive isoTOP-ABPP, item: HAT1 cysteine peptide; Ramos soluble proteome; 100 µM, together with: iodoacetamide probe; baseline: DMSO over compound-treated, higher = stronger cysteine blockade): 1
O=C(O)C1CCCN(CCOC23CC4CC(CC(C4)C2)C3)C1 (stereo not shown)  remaining signal (SLC6A9; cell-free assay; 1 µM): 102%
CCCCCC=CC=C1C(=O)C=CC1CC=CCCCC(=O)O (stereo not shown)  isoTOP-ABPP competition ratio (Large ribosomal subunit protein uL4 (Homo sapiens, UniProt P36578); competitive isoTOP-ABPP, item: RPL4 cysteine peptide; Ramos soluble proteome; 100 µM, together with: iodoacetamide probe; baseline: DMSO over compound-treated, higher = stronger cysteine blockade): 1.5
COC(=O)Cc1cc2c(cc1C(=O)c1cccc(Br)c1)OCO2  desensitization time constant (Gria2/Glutamate receptor 3; glutamate-evoked current, whole-cell patch clamp; HEK-293T; concentration not given, weighted tau, 500 ms pulse, together with: glutamate): 2.3 ± 0.2 ms
CC(C=CC=C(C)C=CC1=C(C)CCCC1(C)C)=CC=O  Pearson correlation coefficient (Rhodopsin (RHO, Homo sapiens, UniProt P08100, E181K); ER retention, immunostaining co-localization, item: opsin with calnexin; COS-7 transfected E181K; 0.05 µM): 0.8
C[C@H](NC(=O)CN)C(=O)NCC(=O)N[C@@H](C)C(=O)N[C@@H](C)C(=O)NCC(=O)NCC(=O)N[C@@H](C)C(=O)NCC(=O)NCC(=O)NCC(=O)NCC(=O)NCC(=O)NCC(=O)NCC(=O)N[C@@H](CCCCNC(=O)CCCC[C@@H]1SC[C@@H]2NC(=O)N[C@@H]21)C(N)=O  relative surface expression (Cd274 (Mus musculus, UniProt Q9EP73); flow cytometry, item: Cd274; concentration not given, 48 h; baseline: 0 h): 0.98 and 0.883
O=[N+]([O-])c1cc(Br)cc([N+](=O)[O-])c1NS(=O)(=O)c1ccc(Br)cc1  HAB1 phosphatase activity (PYL5, with HAB1 (Arabidopsis thaliana, UniProt Q9FLB1); antagonist; 20 µM, together with: ABA 5 µM; higher = more HAB1 activity): 0.09 a.u. and 0.093 a.u. and 0.098 a.u.
O=C1c2sc(-c3ccc(N4CCC(CO)CC4)nc3F)nc2CCN1c1cccnc1  specific binding (TAR DNA-binding protein 43, aggregated (TARDBP, Homo sapiens, UniProt Q13148); radioligand binding; human, FTLD-TDP type B extract; together with: radioligand 26.56 nM): 4.7 nM and 5.91 nM
CN(C)C=CC=C1CCc2ccccc2C1=O  inhibition (USP14; enzyme activity, inhibitor; 17 µM): 70%
Cc1ccc(C2CCN(C3CCCCC3O)CC2)cc1 (racemic)  selectivity ratio (SIGMAR1 (Homo sapiens, UniProt Q99720); rat liver (sigma2), human sigma1; baseline: Ki sigma2 over Ki sigma1): 4.4
Oc1ccc(Cl)cc1C=Nc1cccc2nsnc12  inhibition (USP14; enzyme activity, inhibitor; 17 µM): 75%
CCOC(=O)C1(C)C(Br)=C(Cl)C(=O)N1c1ccc(F)cc1 (stereo not shown)  inhibition (Rac GTPase-activating protein 1 (Homo sapiens, UniProt Q9H0H5); enzyme activity, inhibitor, ADP detection; 10 µM): 76.3%
C=C1C[C@@]2(C(=O)OC)C=C(C(=O)Nc3cccc(C(=O)Nc4ccc(Nc5nccc(-c6cccnc6)n5)c(C)c4)c3)C(=O)[C@@H]1C2  remaining activity (MAPK8 (Homo sapiens, UniProt P45983); kinase activity, inhibitor; 0.06097 µM, unit not given, together with: 10 mM glutathione; baseline: no inhibitor): 0.666
O=C(O)Cc1cc2c(cc1C(=O)c1ccccc1)OCO2  desensitization time constant (Gria2/Glutamate receptor 3; glutamate-evoked current, whole-cell patch clamp; HEK-293T; concentration not given, weighted tau, 500 ms pulse, together with: glutamate): 2.6 ± 0.2 ms
CC1(C)C[C@@H](Nc2cccc(-c3sc(C(=O)O)c(OCC(=O)O)c3Cl)c2)CCN1S(=O)(=O)Cc1cccc(NC(=O)CN2CCC(c3ccc4c(c3)oc(=O)n4C3CCC(=O)NC3=O)CC2)c1 (stereo partly shown)  BLI binding response (PTPN2 (Homo sapiens, UniProt P17706, E41K/R35E/R43E); degrader, bio-layer interferometry; 31.3 nM; higher = more binding): 0.201 a.u.
COc1ccc(C(O)(c2ccc(OC)cc2)c2ccc3nccn3c2)cc1  remaining signal (SLC6A9; cell-free assay; 1 µM): 98%
Clc1ccc(-c2cc(CN3c4ccccc4C=Cc4ccccc43)on2)cc1  apparent Vmax (PPO3; enzyme activity, inhibitor; concentration not given): 34.1 µmol/min
CC1=NN(c2ccccc2)C(=O)C1=NOCC(=O)N1CCCc2ccccc21  inhibition (USP14; enzyme activity, inhibitor; 17 µM): 57%
O=C(N1CCCC1)n1cc(-c2ccc(-c3ccccc3)cc2)nn1  SILAC activity ratio (Abhd6 (Mus musculus, UniProt Q8R2Y0); probe labelling, inhibitor, competitive ABPP-SILAC; mouse T cells; concentration not given, 4 h, single peptide; baseline: treated over DMSO cells, lower = stronger inhibition): 0.79 and 0.62 and 0.53 and 0.59 and 0.55 and 0.52 and 0.54
Cc1cc(NC(=O)c2cccc(N)c2)ccc1Nc1nccc(-c2cccnc2)n1  remaining activity (MAPK9 (Homo sapiens, UniProt P45984); enzyme activity, inhibitor; 1.646 µM, unit not given; baseline: vehicle): 0.571
CC[C@H](C)[C@H](NC(=O)[C@H](CC(=O)O)NC(=O)[C@H](CC(=O)O)NC(=O)[C@@H](N)CC(=O)O)C(=O)N[C@@H](C)C(=O)N[C@@H](C)C(=O)N[C@@H](CC(C)C)C(=O)N[C@@H](CCCNC(=N)N)C(=O)N[C@@H](Cc1c[nH]c2ccccc12)C(=O)NCC(=O)N[C@@H](CCCNC(=N)N)C(=O)N1CCC[C@H]1C(=O)N[C@H](C(=O)NCC(=O)N[C@@H](CCCNC(=N)N)C(=O)N[C@@H](CCCNC(=N)N)C(=O)N[C@@H](CCCNC(=N)N)C(=O)N[C@@H](CCCNC(=N)N)C(=O)N1CCC[C@H]1C(=O)N[C@H](C(=O)N[C@@H](CCCNC(=N)N)C(=O)N[C@H](C(=O)N[C@@H](Cc1ccc(O)cc1)C(=O)N1CCC[C@H]1C(=O)O)C(C)C)C(C)C)C(C)C  Km (N-alpha-acetyltransferase 80 (Naa80, Drosophila melanogaster, UniProt Q59DX8, K83A); acetyltransferase activity, substrate; K73A mutant, together with: [14C]acetyl-CoA): 1460 ± 230 µM
COC(=O)Cc1cc2c(cc1C(=O)c1ccc(Cl)cc1Cl)OCO2  desensitization time constant (Gria2/Glutamate receptor 3; glutamate-evoked current, whole-cell patch clamp; HEK-293T; concentration not given, weighted tau, 500 ms pulse, together with: glutamate): 1.8 ± 0.2 ms
Cc1ncsc1-c1ccc(CNC(=O)[C@@H]2C[C@@H](O)CN2C(=O)[C@@H](NC(=O)C2(F)CC2)C(C)(C)C)c(OCCC2CCN(c3nc(NCC(C)(C)C4(O)CCOC4)nc(N4CCC[C@H]4Cn4ccnn4)n3)CC2)c1 (stereo partly shown)  ternary complex formation (VHL/BRD9, with Elongin B/C (Homo sapiens, UniProt P40337+Q9H8M2); native mass spectrometry; 5 µM, together with: BRD9 and VCB at 5 µM; baseline: unbound BRD9): 20%
CC(C)[C@@H]1NC(=O)[C@H](Cc2ccccc2)NC(=O)CSC[C@@H](C(N)=O)NC(=O)[C@H](CCC(=O)O)NC(=O)[C@H](CO)NC(=O)[C@H](Cc2c[nH]c3cccc(Cl)c23)NC(=O)[C@H](C2CCCCC2)NC(=O)[C@H](C(C)C)NC(=O)[C@H](Cc2ccc(O)cc2)NC(=O)[C@H](CC(=O)O)NC(=O)[C@H](Cc2c[nH]c3ccccc23)NC(=O)[C@H](Cc2ccc(N)nc2)NC(=O)[C@H](Cc2c[nH]c3ccc(Cl)cc23)NC(=O)[C@H](CCC(=O)O)NC1=O  remaining activity (Interleukin-1 receptor-like 2 (IL1RL2, Homo sapiens, UniProt Q9HB29); reporter gene (SEAP), inhibitor, HEK-Blue IL-36R reporter; HEK-Blue IL-36R cells; 33.33 µM, 6 h, together with: IL-36β 100 ng/mL): 83.2%
COc1cc(Nc2nc(C)cc(-c3cnn4nc(OC)ccc34)n2)cc(C(F)(F)F)c1  remaining activity (PIK3CA (Homo sapiens, UniProt P42336, E545K); inhibitor; 1 µM; baseline: control): 71%
O=C(Nc1cc(C(=O)Nc2ccc(S(=O)(=O)O)cc2S(=O)(=O)O)cc(C(=O)Nc2ccc(S(=O)(=O)O)cc2S(=O)(=O)O)c1)Nc1cc(C(=O)Nc2ccc(S(=O)(=O)O)cc2S(=O)(=O)O)cc(C(=O)Nc2ccc(S(=O)(=O)O)cc2S(=O)(=O)O)c1  calcium influx (P2X purinoceptor 1 (P2RX1, Homo sapiens, UniProt P51575); antagonist, calcium influx; 10 µM, together with: submaximal α,β-methylene ATP; baseline: ionomycin response): 0% and 2.55%
Cc1cccc2c1N(C(=O)n1ccnn1)CC2  relative affinity (KAI2 (Arabidopsis thaliana, UniProt Q9SZU7, S95D); ITC; S95D mutant; baseline: wild type): 65.3%

Some of these lines once more:
COC(=O)Cc1cc2c(cc1C(=O)c1ccc(Cl)cc1Cl)OCO2  desensitization time constant (Gria2/Glutamate receptor 3; glutamate-evoked current, whole-cell patch clamp; HEK-293T; concentration not given, weighted tau, 500 ms pulse, together with: glutamate): 1.8 ± 0.2 ms
Cc1ncsc1-c1ccc(CNC(=O)[C@@H]2C[C@@H](O)CN2C(=O)[C@@H](NC(=O)C2(F)CC2)C(C)(C)C)c(OCCC2CCN(c3nc(NCC(C)(C)C4(O)CCOC4)nc(N4CCC[C@H]4Cn4ccnn4)n3)CC2)c1 (stereo partly shown)  ternary complex formation (VHL/BRD9, with Elongin B/C (Homo sapiens, UniProt P40337+Q9H8M2); native mass spectrometry; 5 µM, together with: BRD9 and VCB at 5 µM; baseline: unbound BRD9): 20%
CC(C)[C@@H]1NC(=O)[C@H](Cc2ccccc2)NC(=O)CSC[C@@H](C(N)=O)NC(=O)[C@H](CCC(=O)O)NC(=O)[C@H](CO)NC(=O)[C@H](Cc2c[nH]c3cccc(Cl)c23)NC(=O)[C@H](C2CCCCC2)NC(=O)[C@H](C(C)C)NC(=O)[C@H](Cc2ccc(O)cc2)NC(=O)[C@H](CC(=O)O)NC(=O)[C@H](Cc2c[nH]c3ccccc23)NC(=O)[C@H](Cc2ccc(N)nc2)NC(=O)[C@H](Cc2c[nH]c3ccc(Cl)cc23)NC(=O)[C@H](CCC(=O)O)NC1=O  remaining activity (Interleukin-1 receptor-like 2 (IL1RL2, Homo sapiens, UniProt Q9HB29); reporter gene (SEAP), inhibitor, HEK-Blue IL-36R reporter; HEK-Blue IL-36R cells; 33.33 µM, 6 h, together with: IL-36β 100 ng/mL): 83.2%
COc1cc(Nc2nc(C)cc(-c3cnn4nc(OC)ccc34)n2)cc(C(F)(F)F)c1  remaining activity (PIK3CA (Homo sapiens, UniProt P42336, E545K); inhibitor; 1 µM; baseline: control): 71%
